Assay results gathered from unrelated publications.

For CC12CCC3(CCC(=O)NCCNc4ccnc5cc(Cl)ccc45)C(C)(OOC3(C)O1)O2, the inhibition was 7.5% (K562; cell growth or viability, resazurin; 10 µM, 48 h).
With C=C(C(=O)O)[C@@H]1CC[C@@]2(C)CCC(=O)C(C)=C2C1 the inhibition was 3.89% (human Neutrophil; elastase release, inhibitor; 10 µM).
For CC1CCC(C(C)C)C(OC(=O)Cn2cc(COC(=O)Cn3cnc4c3c(=O)n(C)c(=O)n4C)nn2)C1 (stereo not drawn), the inhibition was 61.1% (RAW264.7; NO release, inhibitor, Griess; 25 µM, LPS-stimulated).
With COC(=O)c1ccc(-n2cc(CCCN(CCNc3ccnc4cc(Cl)ccc34)C(=O)CCC(=O)OC3OC4OC5(C)CCC6C(C)CCC(C3C)C46OO5)nn2)cc1 (stereo not drawn) the inhibition was 82.5% (K562; cell growth or viability, resazurin; 10 µM, 48 h).
With CC1=CCC23OC2(C)CCC2C(C[N+](C)(C)C)C(=O)OC2C13.[I-] (stereo not drawn) the inhibition was 81.4% (TK-10; cell growth or viability, SRB; 8.3 µM).
N=C(N)NCCC[C@H](NC(=O)[C@H](Cc1ccc(-c2ccccc2)cc1)NC(=O)[C@H](CCCNC(=N)N)NC(=O)[C@H](Cc1ccc(-c2ccccc2)cc1)NC(=O)[C@@H](N)CCCNC(=N)N)C(N)=O gave an inhibition of 15% (MDCK; cell proliferation, MTT; 200 µM, 24 h).
The inhibition of C=C(C(=O)OC)[C@@H]1CC[C@@]2(C)CCC(=O)C(C)=C2C1 is reported as 0.7% (human Neutrophil; elastase release, inhibitor; 10 µM).
For C#CCCCN(CCNc1ccnc2cc(Cl)ccc12)C(=O)CCC(=O)O[C@@H]1O[C@@H]2O[C@@]3(C)CC[C@H]4[C@H](C)CCC([C@H]1C)[C@@]24OO3 (stereo partly drawn), the inhibition was 48.5% (K562; cell growth or viability, resazurin; 10 µM, 48 h).
With CC1=C2[C@@H](O)[C@H](C(=O)O)CC[C@@]2(C)CCC1=O the inhibition was 12.1% (human Neutrophil; superoxide release, inhibitor, absorbance; 10 µM).
With CC1CCC2C(C)C(OC(=O)CCC(=O)N(CCCc3cn(-c4ccc(CN5CCOCC5)cc4)nn3)CCNc3ccnc4cc(Cl)ccc34)OC3OC4(C)CCC1C32OO4 (stereo not drawn) the inhibition was 60.1% (K562; cell growth or viability, resazurin; 10 µM, 48 h).
COc1ccc(CCN2CCC[C@H](CN3CCc4cc(OC)c(OC)cc4CC3=O)C2)cc1OC gave an inhibition of 61.8% (mouse VTA dopamine neurons; firing rate, cell-attached recording; 750 µM, 3 min).
For CC12OOC(C)(OO1)C2CCC(=O)NCCNc1ccnc2cc(Cl)ccc12 (stereo not drawn), the inhibition was 37.3% (K562; cell growth or viability, resazurin; 10 µM, 48 h).
The inhibition of COc1cc(-c2oc3cc(OC)c(OC)c(O)c3c(=O)c2OC)ccc1O is reported as 65.8% (human Neutrophil; elastase release, inhibitor; 10 µM).
C=CCc1ccc(OC(=O)COC(=O)Cn2cnc3c2c(=O)n(C)c(=O)n3C)c(OC)c1 has an inhibition of 31.3% (RAW264.7; ELISA, measured: IL-6; 1 µM, added: LPS; relative to: LPS alone).
C=C(C(=O)O)[C@@H]1CC[C@@]2(C)CCC(=O)C(C)=C2[C@H]1O gave an inhibition of 5.89% (human Neutrophil; elastase release, inhibitor; 10 µM).
With CC[C@H](C)[C@H](NC(C)=O)C(=O)N[C@@H](CCCNC(=N)N)C(=O)N[C@@H](CC(C)C)C(=O)N[C@@H](CCC(N)=O)C(=O)N[C@H](C(=O)N[C@@H](CO)C(=O)N[C@@H](CC(N)=O)C(=O)N1CCC[C@H]1C(=O)N[C@@H](Cc1ccc(O)cc1)C(=O)N[C@@H](CC(C)C)C(=O)N[C@@H](CCCCN)C(=O)N[C@@H](Cc1ccccc1)C(=O)N[C@H](C(=O)N1CCC[C@H]1C(=O)N[C@@H](CC(C)C)C(=O)N[C@@H](CCCCN)C(=O)N[C@@H](CCCNC(=N)N)C(=O)N[C@@H](C)C(=O)N[C@H](C(=O)N[C@@H](Cc1c[nH]c2ccccc12)C(=O)N[C@@H](CC(C)C)C(=O)N[C@H](C(=O)N[C@@H](CCCCN)C(N)=O)[C@@H](C)CC)[C@@H](C)CC)[C@@H](C)CC)[C@@H](C)CC the inhibition was no less than 50% (human cells; total IgG production; concentration not given).
The inhibition of CC1CCC(C(C)C)C(OC(=O)CSc2nnc(Cn3cnc4c3c(=O)n(C)c(=O)n4C)o2)C1 (stereo not drawn) is reported as 69.6% (RAW264.7; NO release, inhibitor, Griess; 25 µM, LPS-stimulated).
COc1cc(-c2oc3cc(O)c(OC)c(O)c3c(=O)c2OC)ccc1O gave an inhibition of 48.2% (human Neutrophil; elastase release, inhibitor; 10 µM).

A few entries again:
For CC1CCC(C(C)C)C(OC(=O)Cn2cc(COC(=O)Cn3cnc4c3c(=O)n(C)c(=O)n4C)nn2)C1 (stereo not drawn), the inhibition was 61.1% (RAW264.7; NO release, inhibitor, Griess; 25 µM, LPS-stimulated).
